Assay results from different studies.
Each numbered part is a random draw from the data of one study; scales do not carry over between parts.

Set 1
Target: RNA binding protein fox-1 homolog 2, RRM domain, GST-SBP tag (RBFOX2, Homo sapiens, UniProt O43251-10, residues 100-194)
Technique: RNA Bind-n-Seq
Form: RNA
Medium: in vitro
Tested at: 365 nM
Setting: natural RNA segment, single round, ends assumed
Baseline: no-protein control
Reading: higher = stronger binding
Measurement: RBNS enrichment (R)
Target sequence (chain): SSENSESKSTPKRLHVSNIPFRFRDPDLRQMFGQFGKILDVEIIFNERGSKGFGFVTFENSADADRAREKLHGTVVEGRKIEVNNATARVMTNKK
GGGAGUUCUACAGUCCGACGAUCAUCUGGGCUGAGCCAAAGUCCCUUUUGGAAAUACAAGCCAUAACAUUCGAAGGACAUCAGCGACCUUGGCUUGUUUAGGUGAUUUUACUUCCAGCUGCAGGUAGUCUUGAUGGAAUUCUCGGGUGCCAA: 0.337
GGGAGUUCUACAGUCCGACGAUCCCUGGUGUGCUUUGAAGGCAGAUGAGCUGGUGAUUUCAUUGGGCACUUGGCCCUUUUCCAAGCACAUCUGGGCAGAUAUAGACACAGGAAGAUAGGGUCCAACAGCGAGAUGGAAUUCUCGGGUGCCAA: 0.466
GGGAGUUCUACAGUCCGACGAUCAUUCACAUAGGUGGAGUUUCCCAUCUGAAGAUUUCUUUACAAGGACUUUGCUAAGUUCAUCUCAGGGUUAUCUGAGCCUUGACCAAGUUUAUCCUAAGGGAAUACCACUUUGGAAUUCUCGGGUGCCAA: 0.306
GGGAGUUCUACAGUCCGACGAUCGUUGGCCUUGAAGCAGAGGGCACAGCCCUUGGUGUUUGUAAAAUAAGUAUGAAUACACAGUGUGGCAGUGUUGUGGUUUUUGUUGUUGUUUUUCCUCUCCUUUUGAGAAUUGGAAUUCUCGGGUGCCAA: 0.845

Set 2
Target: Histone acetyltransferase KAT6A, both winged helices, GST fusion (KAT6A, Homo sapiens, UniProt Q92794, residues 1-181)
Technique: protein binding microarray
Form: double-stranded DNA, one strand shown
Medium: in vitro
Tested at: not given
Setting: 8-mer, flanks averaged, mean of 2 arrays, mostly near background
Baseline: not given
Reading: higher = stronger binding
Measurement: E-score
Target sequence (chain): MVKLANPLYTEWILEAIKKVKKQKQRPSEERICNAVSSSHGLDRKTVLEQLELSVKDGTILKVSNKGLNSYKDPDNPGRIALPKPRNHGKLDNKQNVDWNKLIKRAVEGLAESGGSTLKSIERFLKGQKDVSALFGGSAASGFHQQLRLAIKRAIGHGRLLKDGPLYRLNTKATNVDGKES
ACTGGAAG: -0.154
TCCCCGAA: -0.00317
ACCGCATC: 0.202
CGCACGAA: 0.129

Set 3
Target: Interferon regulatory factor 7, full length, phosphomimetic (IRF7, Homo sapiens, UniProt Q92985, residues 1-503, S471D/S472D/S475D/S476D/S477D/S483D/S484D/S487D)
Sequence of UniProt Q92985 (whole entry, unmodified, looked up): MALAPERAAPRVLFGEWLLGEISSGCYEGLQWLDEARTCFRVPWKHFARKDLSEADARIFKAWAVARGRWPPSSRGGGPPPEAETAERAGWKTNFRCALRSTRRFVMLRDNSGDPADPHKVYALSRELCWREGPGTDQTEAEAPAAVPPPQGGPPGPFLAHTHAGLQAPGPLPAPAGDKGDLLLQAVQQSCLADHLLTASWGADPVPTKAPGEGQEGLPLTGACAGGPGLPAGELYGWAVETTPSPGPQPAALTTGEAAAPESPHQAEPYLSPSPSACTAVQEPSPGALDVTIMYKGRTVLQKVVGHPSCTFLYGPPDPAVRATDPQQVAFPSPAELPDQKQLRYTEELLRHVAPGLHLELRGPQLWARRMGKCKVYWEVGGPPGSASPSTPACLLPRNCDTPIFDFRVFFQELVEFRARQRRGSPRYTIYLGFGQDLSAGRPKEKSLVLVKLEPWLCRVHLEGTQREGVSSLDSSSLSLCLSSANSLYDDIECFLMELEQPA
Technique: protein-binding microarray
Form: double-stranded DNA, one strand shown
Medium: in vitro
Tested at: 2200 nM top
Setting: 60-bp whole probe
Added: salmon DNA 0.4 mg/ml
Baseline: random background probes
Reading: higher = stronger binding
Measurement: fitted relative affinity
GCCTAGCACTTAGGTATCGGGTATAGGTTAGTGCTAGTCTTGATTCGCTTGACGCTGCTG: 0.17 z-score
GCCTAGCACTCATACATGTGTTTAAAACTGTGCTAGGTCTTGATTCGCTTGACGCTGCTG: 0.499 z-score
GCCTAGCACCAACCTATAGGTTCAACGACGTGCTAGGTCTTGATTCGCTTGACGCTGCTG: 0.163 z-score
GCCTAGCACTCAAAAATGGCTTTGCAACTGTGCTAGGTCTTGATTCGCTTGACGCTGCTG: -0.65 z-score

Mixed results
PhoQ, residues 284 288 289 292 302 303 SQSLSM — fold induction (PhoP, residues 12 14 15 18 19 IFFTR (Escherichia coli, UniProt P23836); Sort-seq, item: YFP reporter; E. coli; PhoQ-PhoP variant library, added: 10 µM Mg2+; baseline: high Mg2+ state, higher = stronger signaling): 7.8

Excerpt of the above (set 2):
CGCACGAA: 0.129
TCCCCGAA: -0.00317
